Measured values pooled from the literature.
Every numbered part comes from another study and shows a few of its results, in no order.
UniProt Q8N4C8, sequence (whole entry, looked up): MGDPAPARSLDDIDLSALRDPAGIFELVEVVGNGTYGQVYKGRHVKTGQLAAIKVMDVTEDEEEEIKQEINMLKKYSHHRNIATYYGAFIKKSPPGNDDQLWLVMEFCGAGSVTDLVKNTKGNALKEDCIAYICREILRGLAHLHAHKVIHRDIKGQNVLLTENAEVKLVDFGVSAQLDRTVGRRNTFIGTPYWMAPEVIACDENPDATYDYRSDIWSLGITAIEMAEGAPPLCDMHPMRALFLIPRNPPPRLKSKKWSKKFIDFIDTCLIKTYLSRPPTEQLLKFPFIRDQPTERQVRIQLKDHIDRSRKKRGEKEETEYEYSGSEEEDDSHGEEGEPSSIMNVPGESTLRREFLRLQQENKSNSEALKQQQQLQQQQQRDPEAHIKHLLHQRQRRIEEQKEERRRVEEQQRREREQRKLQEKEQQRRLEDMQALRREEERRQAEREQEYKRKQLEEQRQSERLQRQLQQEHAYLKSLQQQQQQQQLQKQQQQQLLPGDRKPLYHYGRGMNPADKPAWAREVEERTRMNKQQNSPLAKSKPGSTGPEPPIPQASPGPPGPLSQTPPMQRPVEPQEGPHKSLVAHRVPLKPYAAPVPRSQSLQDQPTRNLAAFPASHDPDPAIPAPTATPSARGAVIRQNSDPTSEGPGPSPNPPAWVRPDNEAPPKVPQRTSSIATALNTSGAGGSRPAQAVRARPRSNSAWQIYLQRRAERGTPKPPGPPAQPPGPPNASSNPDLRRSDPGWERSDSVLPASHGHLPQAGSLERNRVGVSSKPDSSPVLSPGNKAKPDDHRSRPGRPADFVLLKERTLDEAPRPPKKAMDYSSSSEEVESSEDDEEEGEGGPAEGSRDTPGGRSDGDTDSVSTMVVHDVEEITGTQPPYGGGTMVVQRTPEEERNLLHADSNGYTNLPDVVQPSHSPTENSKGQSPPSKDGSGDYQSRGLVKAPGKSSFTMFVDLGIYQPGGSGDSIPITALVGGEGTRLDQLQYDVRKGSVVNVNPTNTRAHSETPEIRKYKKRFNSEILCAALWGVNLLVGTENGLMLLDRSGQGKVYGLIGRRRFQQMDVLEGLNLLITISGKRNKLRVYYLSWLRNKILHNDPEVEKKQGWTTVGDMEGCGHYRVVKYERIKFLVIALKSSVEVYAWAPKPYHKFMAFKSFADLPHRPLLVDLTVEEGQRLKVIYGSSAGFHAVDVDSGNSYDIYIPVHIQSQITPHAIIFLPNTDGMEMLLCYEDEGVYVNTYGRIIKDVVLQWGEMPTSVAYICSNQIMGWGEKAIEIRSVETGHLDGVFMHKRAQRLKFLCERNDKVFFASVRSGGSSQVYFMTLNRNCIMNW
UniProt P42681, sequence (whole entry, looked up): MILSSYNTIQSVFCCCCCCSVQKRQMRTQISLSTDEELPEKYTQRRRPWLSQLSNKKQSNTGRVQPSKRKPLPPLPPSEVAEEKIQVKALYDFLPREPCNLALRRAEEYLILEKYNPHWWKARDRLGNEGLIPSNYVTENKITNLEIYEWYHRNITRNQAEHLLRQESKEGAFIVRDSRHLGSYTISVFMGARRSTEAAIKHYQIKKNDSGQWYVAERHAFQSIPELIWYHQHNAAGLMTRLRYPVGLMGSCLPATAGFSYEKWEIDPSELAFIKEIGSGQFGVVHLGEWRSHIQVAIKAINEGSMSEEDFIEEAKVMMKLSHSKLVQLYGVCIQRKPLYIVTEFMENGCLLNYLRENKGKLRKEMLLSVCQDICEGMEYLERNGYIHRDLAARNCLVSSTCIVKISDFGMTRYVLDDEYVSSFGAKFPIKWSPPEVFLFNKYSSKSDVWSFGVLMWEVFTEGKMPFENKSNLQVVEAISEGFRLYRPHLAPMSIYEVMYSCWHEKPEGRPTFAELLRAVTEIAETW
UniProt Q9H4B4, sequence (whole entry, looked up): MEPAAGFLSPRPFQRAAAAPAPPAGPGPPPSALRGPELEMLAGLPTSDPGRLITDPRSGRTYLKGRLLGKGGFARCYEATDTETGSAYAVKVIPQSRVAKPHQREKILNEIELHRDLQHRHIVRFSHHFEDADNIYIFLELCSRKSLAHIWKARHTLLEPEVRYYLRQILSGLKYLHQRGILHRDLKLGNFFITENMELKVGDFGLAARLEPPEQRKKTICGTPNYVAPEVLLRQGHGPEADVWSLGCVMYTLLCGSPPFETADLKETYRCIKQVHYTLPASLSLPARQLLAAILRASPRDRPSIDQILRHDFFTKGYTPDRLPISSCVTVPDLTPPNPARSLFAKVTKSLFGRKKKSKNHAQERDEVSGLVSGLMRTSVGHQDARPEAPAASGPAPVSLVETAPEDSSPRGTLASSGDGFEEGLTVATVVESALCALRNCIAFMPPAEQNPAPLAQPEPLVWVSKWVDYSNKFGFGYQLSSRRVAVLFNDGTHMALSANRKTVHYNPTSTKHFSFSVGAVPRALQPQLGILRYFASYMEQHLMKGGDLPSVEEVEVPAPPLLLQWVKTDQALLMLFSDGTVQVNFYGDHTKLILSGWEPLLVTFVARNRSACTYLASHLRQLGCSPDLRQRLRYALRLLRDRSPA
UniProt Q16539, sequence (whole entry, looked up): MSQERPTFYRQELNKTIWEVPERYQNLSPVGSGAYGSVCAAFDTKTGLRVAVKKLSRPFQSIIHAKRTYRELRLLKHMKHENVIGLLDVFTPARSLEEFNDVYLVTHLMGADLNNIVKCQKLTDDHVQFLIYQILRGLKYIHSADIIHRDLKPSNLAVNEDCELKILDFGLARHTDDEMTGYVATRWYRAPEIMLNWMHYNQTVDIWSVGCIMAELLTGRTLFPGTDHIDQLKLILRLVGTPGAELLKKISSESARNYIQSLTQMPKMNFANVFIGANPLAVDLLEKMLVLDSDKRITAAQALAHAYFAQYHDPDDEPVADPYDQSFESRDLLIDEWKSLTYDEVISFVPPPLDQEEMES
UniProt Q7KZI7, sequence (whole entry, looked up): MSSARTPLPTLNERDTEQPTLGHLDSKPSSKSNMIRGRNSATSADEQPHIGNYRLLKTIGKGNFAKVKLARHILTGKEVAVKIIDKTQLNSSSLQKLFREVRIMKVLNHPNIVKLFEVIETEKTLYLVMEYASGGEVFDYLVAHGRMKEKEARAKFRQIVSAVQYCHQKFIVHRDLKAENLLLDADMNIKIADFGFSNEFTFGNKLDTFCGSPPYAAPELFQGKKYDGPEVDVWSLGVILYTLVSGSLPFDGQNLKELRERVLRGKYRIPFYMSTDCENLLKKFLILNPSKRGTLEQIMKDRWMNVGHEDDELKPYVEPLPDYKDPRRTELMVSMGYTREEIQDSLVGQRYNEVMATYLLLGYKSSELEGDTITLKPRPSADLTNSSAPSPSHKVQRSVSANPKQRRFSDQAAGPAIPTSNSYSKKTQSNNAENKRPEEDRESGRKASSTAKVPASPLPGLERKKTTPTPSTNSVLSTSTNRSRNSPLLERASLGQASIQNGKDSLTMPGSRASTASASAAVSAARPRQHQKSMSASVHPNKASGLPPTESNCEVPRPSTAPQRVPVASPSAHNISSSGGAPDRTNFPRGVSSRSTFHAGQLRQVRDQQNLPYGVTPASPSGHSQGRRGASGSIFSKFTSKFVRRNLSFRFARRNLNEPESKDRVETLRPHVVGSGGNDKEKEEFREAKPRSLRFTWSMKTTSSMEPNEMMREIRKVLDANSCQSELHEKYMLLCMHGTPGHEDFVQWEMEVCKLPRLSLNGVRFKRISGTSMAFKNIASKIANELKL
UniProt P32298, sequence (whole entry, looked up): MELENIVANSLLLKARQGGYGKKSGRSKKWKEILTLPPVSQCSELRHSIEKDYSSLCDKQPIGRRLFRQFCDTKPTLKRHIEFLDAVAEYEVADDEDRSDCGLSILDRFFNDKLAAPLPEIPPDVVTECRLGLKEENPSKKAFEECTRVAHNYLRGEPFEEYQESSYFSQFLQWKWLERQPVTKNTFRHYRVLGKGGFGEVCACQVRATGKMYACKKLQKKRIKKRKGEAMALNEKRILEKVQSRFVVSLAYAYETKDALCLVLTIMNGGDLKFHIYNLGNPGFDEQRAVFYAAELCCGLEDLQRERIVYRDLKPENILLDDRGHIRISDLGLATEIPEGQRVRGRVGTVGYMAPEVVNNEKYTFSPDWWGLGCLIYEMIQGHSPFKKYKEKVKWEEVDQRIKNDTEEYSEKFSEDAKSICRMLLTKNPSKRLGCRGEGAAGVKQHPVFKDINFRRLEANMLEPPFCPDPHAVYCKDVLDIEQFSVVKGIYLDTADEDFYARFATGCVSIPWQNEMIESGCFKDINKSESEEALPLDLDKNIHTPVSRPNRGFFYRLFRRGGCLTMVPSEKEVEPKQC

Sample 1 — effect on: enzyme activity; mode: inhibitor; tested at: 10 µM
Target: Calcium/calmodulin-dependent protein kinase type II subunit alpha (CAMK2A, Homo sapiens, UniProt Q9UQM7)
UniProt Q9UQM7, sequence (whole entry, looked up): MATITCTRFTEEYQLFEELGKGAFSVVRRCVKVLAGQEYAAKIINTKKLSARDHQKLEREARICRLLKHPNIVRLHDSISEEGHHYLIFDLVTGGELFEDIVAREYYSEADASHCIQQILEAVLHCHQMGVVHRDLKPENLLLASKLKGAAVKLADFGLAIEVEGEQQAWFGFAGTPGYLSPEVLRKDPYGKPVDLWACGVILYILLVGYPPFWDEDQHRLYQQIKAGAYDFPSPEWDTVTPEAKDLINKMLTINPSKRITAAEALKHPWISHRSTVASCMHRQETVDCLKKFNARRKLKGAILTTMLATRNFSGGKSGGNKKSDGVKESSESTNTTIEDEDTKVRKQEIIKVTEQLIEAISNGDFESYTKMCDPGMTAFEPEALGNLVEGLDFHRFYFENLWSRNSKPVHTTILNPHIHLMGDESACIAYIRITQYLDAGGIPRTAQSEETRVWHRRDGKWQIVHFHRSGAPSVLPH
Compound | inhibition [%]
Nc1ncc2ncn(CC3(OCP(=O)(O)O)CC3)c2n1 | -3
COc1cc2c(cc1OC)C1=Cc3ccc(OC)c(OC)c3CN1CC2 | -20
CC[C@@]1(O)C(=O)OCc2c1cc1n(c2=O)Cc2cc3c(N)cccc3nc2-1 | -61
O=C(O)C(O)Cc1ccccc1 (racemic) | -7
CCOCCN(Cc1ccc(CN(CCOCC)C(=O)C(Cl)Cl)cc1)C(=O)C(Cl)Cl | -5
COc1cc(CCCO)cc(OC)c1O | 0
O=C(CCCCC(=O)Nc1c(I)cc(I)c(C(=O)O)c1I)Nc1c(I)cc(I)c(C(=O)O)c1I | -7
CO[C@H]1/C=C/O[C@@]2(C)Oc3c(C)c(O)c4c(O)c(cc(O)c4c3C2=O)NC(=O)/C(C)=C\C=C\[C@H](C)[C@H](O)[C@@H](C)[C@@H](O)[C@@H](C)[C@H](OC(C)=O)[C@@H]1C | -11

Sample 2 — effect on: cell-free assay; technique: competition with immobilised ligand; tested at: 0.1 µM
SMILES: Nc1c(C(=O)NCc2ccc(C(=O)NCCCC3CCCCC3)cc2)cnn1-c1ccccc1
target | remaining binding [%]
WNK3 (Homo sapiens, UniProt Q9BYP7) | 92
FLT3 (Homo sapiens, UniProt P36888, D835H) | 100
MINK1 (Homo sapiens, UniProt Q8N4C8) | 100
Ribosomal protein S6 kinase alpha-4, N-terminal kinase domain (RPS6KA4, Homo sapiens, UniProt O75676) | 85
MAPK13 (Homo sapiens, UniProt O15264) | 100
CAMK1D (Homo sapiens, UniProt Q8IU85) | 93
PLK3 (Homo sapiens, UniProt Q9H4B4) | 100
MTOR (Homo sapiens, UniProt P42345) | 100
VRK2 (Homo sapiens, UniProt Q86Y07) | 92
TXK (Homo sapiens, UniProt P42681) | 83
BUB1 (Homo sapiens, UniProt O43683) | 86

Sample 3 — Structure (SMILES): Cn1cnc2cc3c(Nc4cccc(Br)c4)ncnc3cc21; effect on: enzyme activity; mode: inhibitor; tested at: 0.5 µM; baseline: control
target | remaining activity [%]
CLK4 (Homo sapiens, UniProt Q9HAZ1) | 88.5
MARK2 (Homo sapiens, UniProt Q7KZI7) | 96.6
TXK (Homo sapiens, UniProt P42681) | 86.7
DDR2 (Homo sapiens, UniProt Q16832) | 102
GRK4 (Homo sapiens, UniProt P32298) | 99.5
MAP2K1 (Homo sapiens, UniProt Q02750) | 113
MINK1 (Homo sapiens, UniProt Q8N4C8) | 82.1
PRKG2 (Homo sapiens, UniProt Q13237) | 63.6
CAMK4 (Homo sapiens, UniProt Q16566) | 98.6
CLK3 (Homo sapiens, UniProt P49761) | 100
MAPK11 (Homo sapiens, UniProt Q15759) | 85.9
MAPK14 (Homo sapiens, UniProt Q16539) | 93.6
PAK3 (Homo sapiens, UniProt O75914) | 98.5
PLK3 (Homo sapiens, UniProt Q9H4B4) | 99.8

Sample 4 — mode: inhibitor; tested at: 1 µM
Compound: C=CC(=O)N1CCC[C@@H](n2nc(-c3ccc(Oc4ccccc4)cc3)c3c(N)ncnc32)C1
target | effect on | inhibition
RIOK3 (Homo sapiens, UniProt O14730) |  | 6%
FGR (Homo sapiens, UniProt P09769) |  | 95%
SRPK2 (Homo sapiens, UniProt P78362) | enzyme activity | 7%
MAPKAPK5 (Homo sapiens, UniProt Q8IW41) | enzyme activity | 16%
MINK1 (Homo sapiens, UniProt Q8N4C8) | enzyme activity | 23%
Tyrosine-protein kinase ABL1, phosphorylated (ABL1, Homo sapiens, UniProt P00519) |  | 35%
FGFR1 (Homo sapiens, UniProt P11362) | enzyme activity | 61%
NEK2 (Homo sapiens, UniProt P51955) | enzyme activity | 23%

For quick reference, copied from above (sample 1):
Compound | inhibition [%]
COc1cc(CCCO)cc(OC)c1O | 0
O=C(O)C(O)Cc1ccccc1 (racemic) | -7
Nc1ncc2ncn(CC3(OCP(=O)(O)O)CC3)c2n1 | -3
CO[C@H]1/C=C/O[C@@]2(C)Oc3c(C)c(O)c4c(O)c(cc(O)c4c3C2=O)NC(=O)/C(C)=C\C=C\[C@H](C)[C@H](O)[C@@H](C)[C@@H](O)[C@@H](C)[C@H](OC(C)=O)[C@@H]1C | -11
COc1cc2c(cc1OC)C1=Cc3ccc(OC)c(OC)c3CN1CC2 | -20
O=C(CCCCC(=O)Nc1c(I)cc(I)c(C(=O)O)c1I)Nc1c(I)cc(I)c(C(=O)O)c1I | -7
CCOCCN(Cc1ccc(CN(CCOCC)C(=O)C(Cl)Cl)cc1)C(=O)C(Cl)Cl | -5
